Assay results gathered from unrelated publications.
Each numbered part is a random draw from the data of one study; scales do not carry over between parts. Substitutions count along the parent as printed.

Set 1
Target: TATA-box-binding protein 1 (TBP1, Arabidopsis thaliana, UniProt P28147, residues 1-200, full length assumed)
Technique: protein-binding microarray
Molecule type: double-stranded DNA, one strand shown
Matrix: in vitro
Tested at: not given
Notes: k-mer, scored over probes, only values ≥0.25
Direction: higher = stronger binding
Residues (chain): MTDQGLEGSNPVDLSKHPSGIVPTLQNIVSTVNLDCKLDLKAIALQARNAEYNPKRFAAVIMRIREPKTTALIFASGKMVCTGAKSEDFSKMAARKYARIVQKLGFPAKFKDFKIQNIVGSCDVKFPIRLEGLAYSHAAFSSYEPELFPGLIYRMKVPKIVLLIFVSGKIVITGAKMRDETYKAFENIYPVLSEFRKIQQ
Oligonucleotide | E-score
GTACTTA | 0.279
AGTATAT | 0.449
CTATATA | 0.485
CACTTAA | 0.302
ATATAAT | 0.462
ATTAATA | 0.429
TCTTAAA | 0.333
ATAAAAA | 0.449
TATATCA | 0.422

Set 2
Target: Sal-like protein 4, full length isoform B (SALL4, Homo sapiens, UniProt Q9UJQ4-2, residues 1-616)
Technique: universal PBM
Molecule type: double-stranded DNA, one strand shown
Matrix: in vitro
Tested at: not given
Notes: 8-mer, flanks averaged, mean of replicates
Direction: higher = stronger binding
Target sequence (chain): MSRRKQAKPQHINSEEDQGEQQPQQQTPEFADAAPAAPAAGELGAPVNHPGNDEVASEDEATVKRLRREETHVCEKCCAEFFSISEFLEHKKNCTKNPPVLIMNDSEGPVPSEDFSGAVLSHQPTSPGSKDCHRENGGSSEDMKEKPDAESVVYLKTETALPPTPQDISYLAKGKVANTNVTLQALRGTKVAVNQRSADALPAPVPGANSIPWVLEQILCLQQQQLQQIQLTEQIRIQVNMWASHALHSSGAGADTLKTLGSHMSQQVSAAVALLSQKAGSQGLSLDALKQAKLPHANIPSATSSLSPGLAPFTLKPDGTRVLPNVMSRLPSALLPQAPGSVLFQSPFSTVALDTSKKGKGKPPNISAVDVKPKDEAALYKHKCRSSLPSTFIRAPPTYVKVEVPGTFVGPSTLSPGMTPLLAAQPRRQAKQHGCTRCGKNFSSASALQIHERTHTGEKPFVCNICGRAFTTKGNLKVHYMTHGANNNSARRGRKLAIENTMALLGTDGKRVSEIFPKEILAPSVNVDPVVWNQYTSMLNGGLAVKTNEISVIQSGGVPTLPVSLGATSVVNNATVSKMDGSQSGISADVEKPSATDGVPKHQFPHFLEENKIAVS
Oligonucleotide | E-score
GATTGCTA | 0.0109
TCCGGCAA | -0.148
CCTTGAAC | -0.128
ATCTTACC | 0.0802
GCGCCTCA | -0.282
AAAATTTG | 0.299
AGTTAGTC | -0.146
ACGTTAAC | 0.103
CCATTATA | 0.297
CACCAAGG | -0.293
TGTTTGAA | 0.188
CCTTTTAC | 0.138
ATATCGAG | 0.134
AAGTAGTG | 0.0245
AATGAATC | 0.0802
CTACTGAG | -0.0379
CCACCAAA | -0.105
AGGTGGTC | -0.13

Set 3
Target: RING finger protein unkempt homolog, zinc fingers 1-6, SBP tag (UNK, Homo sapiens, UniProt Q9C0B0, residues 30-357)
Chain of UniProt Q9C0B0 (30-357, looked up): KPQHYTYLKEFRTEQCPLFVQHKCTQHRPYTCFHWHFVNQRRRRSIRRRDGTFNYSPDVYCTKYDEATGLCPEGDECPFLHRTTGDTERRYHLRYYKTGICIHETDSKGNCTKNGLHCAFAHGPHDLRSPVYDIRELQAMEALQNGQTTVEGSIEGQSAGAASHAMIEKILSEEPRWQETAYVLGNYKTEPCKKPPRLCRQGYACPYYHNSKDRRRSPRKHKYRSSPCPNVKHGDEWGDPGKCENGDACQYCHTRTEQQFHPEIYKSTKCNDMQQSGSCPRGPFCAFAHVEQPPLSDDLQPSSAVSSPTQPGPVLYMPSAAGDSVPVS
Technique: RNA Bind-n-Seq
Molecule type: RNA
Matrix: in vitro
Tested at: 100 nM
Notes: RNA with constant flanks, vertebrate orthologous sites, ends assumed
Baseline: input RNA pool
Direction: higher = stronger binding
Constant ends, left off below: GGGAGUUCUACAGUCCGACGAUC … CAACAGAGGAUUGAGCAUCA
Oligonucleotide | bound/input enrichment [ratio]
CAUUGUACCCUGCUGUAUAAUAAACAAUCUUAGACAUUUAUCAAUUGUUGAUACAAAUGUUAGUCCCUAACCACUUUUUAUAUGUUUUAAAUUUUUGAAAUUCAAGUGUACCUGCCAUAA | 1.99
AGGAGGCCUGUCCUGUGGCUGUGUCCAAACACCCCACAGGACUCACUGUCCCAACAAUCCUAAUUGCCUAGAAAUAUCUUUCUCUUACCUGUUAUUUAUCAAUUUUUCCCAGUAUUUUUA | 1.54
GUCAUCUGAUUGGAUAAAGACCAUCCCGAGUUAUAACCAAACAAAUAGCUCCAUGGACUUCAGAAAUUAUAUGAUGAGAGAUGAGAAUCUGGAACCACUGCCCAAAAACUGGGAGAUGGC | 0.376
CUCCCCGGUACCCCUAAAGUAGAACUUUUUAAAAUUAUGUCACCACCACUUCUAAAACUUUAGCAAUAUUAGAAGAAAAUGCUAAUGAAGUAAGAAAUUUUGCUCAUUGUUCUGCAAACC | 0.817
AAGUAGUUUUAAGCUUGUUUGCACAGUUCUUUUUUCCAUUGGAAAUGGAAUUCAUUGCCUUAGGUCUUUUUAAAUAGUGUACUAUUAUUGUUGGGGCUGGCUCUAUGCUUGAAAACCAGU | 2.24
UCUCCUUUCUUUUCCCUUCCUUUUUUUCCUUUUUGGGGGGUACAGUUUGCUCUCUCCCAAUAGUGAUCGUAACAAACUGAUCUGUUCUGGGUGUUGCUCUAGUGACAUGCGAUUCUAUAG | 1.1

Set 4
Target: Histone acetyltransferase KAT6A, winged helix 1, GST fusion (KAT6A, Homo sapiens, UniProt Q92794, residues 1-85)
Technique: protein binding microarray
Molecule type: double-stranded DNA, one strand shown
Matrix: in vitro
Tested at: not given
Notes: 8-mer, flanks averaged, mean of 2 arrays, mostly near background
Baseline: not given
Direction: higher = stronger binding
Construct (chain): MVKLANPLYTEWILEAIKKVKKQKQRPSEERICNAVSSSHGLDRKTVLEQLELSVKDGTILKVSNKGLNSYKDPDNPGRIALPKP
Oligonucleotide | E-score
ATGCGTTC | 0.0847
CGCCTTTC | 0.188
ACCCTCCC | 0.107
CGTTTGTC | 0.116
ATCACGAG | -0.261
GGAACGTA | 0.0431
AATAGATG | -0.117
CGAACTCA | -0.101
CCGCAGAA | 0.342
TGTCACAA | -0.126
GTAGTTCA | -0.13
ATCAAAGA | -0.282

Set 5
Target: ABI1, truncated, D143A, DHFR fusion (Arabidopsis thaliana, UniProt P49597)
Technique: DHFR PCA, dose-response
Matrix: yeast
Notes: Hill fit, mean, not affinity
With: (+)-ABA, dose series
Direction: lower = more sensitive
Starting sequence: PYL1, truncated, DHFR fusion (Arabidopsis thaliana, UniProt Q8VZS8); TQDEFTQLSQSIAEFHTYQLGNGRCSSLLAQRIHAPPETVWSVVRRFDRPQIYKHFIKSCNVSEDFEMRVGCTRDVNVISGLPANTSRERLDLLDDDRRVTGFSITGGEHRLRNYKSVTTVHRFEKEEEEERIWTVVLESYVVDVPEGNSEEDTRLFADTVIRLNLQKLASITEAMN
Substitution | ABA EC50 [µM]
T173W | 67.5
Q10P | 3.57
D95N | 8.26
G71Y | 266
V142H | 16
P36L | 5.49
S26Q | 7.91
R90N | 59.8
V161T | 304
M176W | 2.34
I79N | 20.7

Set 6
Target: RNA binding protein fox-1 homolog 2, RRM domain, GST-SBP tag (RBFOX2, Homo sapiens, UniProt O43251-10, residues 100-194)
Technique: RNA Bind-n-Seq
Molecule type: RNA
Matrix: in vitro
Tested at: 365 nM
Notes: natural RNA segment, single round, ends assumed
Baseline: no-protein control
Direction: higher = stronger binding
Constant ends, left off below: GGGAGUUCUACAGUCCGACGAUC … UGGAAUUCUCGGGUGCCAA
Residues (chain): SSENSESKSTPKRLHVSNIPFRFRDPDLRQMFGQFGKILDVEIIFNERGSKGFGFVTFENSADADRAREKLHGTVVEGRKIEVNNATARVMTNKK
Oligonucleotide | RBNS enrichment (R)
UGUCUUAAAUACUUUAAUGUUGGAAGAGCAUAGUGUUUGGGCUAGUGGGUUUCUGACAGCCCAUGGGAAUGCCCUGAAACUACUGUAUCUGAUGUUUGUUUUCGAUGAGG | 0.451
GAGAGAAGGUGUGUCUGUGGUUCAGGAACAAGCUGUACAUUUUUCACCCUGACUAUGGGACGGAAAUCAGUGCUGCAUCUUCAUGGGCUGCUCUGCUCGGAGAUGGGGCC | 0.332
ACACCUUCCAAACAGUGGCAGGGGCCACAGUGGCAGACAGGGUAGAGUACCCCAGGCAGUUUCUCAGCCUCGUCCGUUGUGUGGAGGGAAUACUGAAUUCAGUUAUCUCA | 0.355
AGUGUGAUUUCCAACAAUUCUGCUCUGGUUAUUUCAUUGAAGACAUCUUUGCACAUGUGACCAUGCUGUGUUAGGGGCUGUGUUCCAGGGACUGGACUCGAAGCUAGAAC | 0.397
UAGGAGCCCUUGCUUGGGGUACAGGUUUUAUAAAUCUGAGCCUUCAACAGUACCUCUCUUCUAAUGGGCUUCAGUCCUCCACUGAGGCAGAAUCUCUGCUGUGGGGAGAG | 0.202
GGGAAUCUUCAUGAGAAGCUGAAAGAAAGGGAAAAAGAAAGUGGCUUUCUGCUUUCAAAAUUGAGGAAAAUAAACCAGAAAAUGCCAAAAGUACUGUUUUAGCAGUGCAC | 0.639

Set 7
Target: CCNA2, cyclin fold, Cln2 fusion (human)
Technique: yeast growth competition, sequencing
Matrix: yeast
Notes: strong parent motif
Baseline: not given
Direction: higher = stronger binding
Starting sequence: BRCA2 docking peptide (human); PSIKRNLLNEFDR
Substitution | normalised enrichment score
N9Y | 5.96
R13C | 3.79
R13Q | 4.76
S2D | 3.78
N6G | 0.0728
P1E | 4.99
D12H | 3.78
R5H | 0.0656
I3C | 6.69
D12M | 5.12
F11R | 1.18
I3V | 6.08
R5M | 1.03

A few entries again (set 7):
Substitution | normalised enrichment score
R13C | 3.79
R13Q | 4.76
S2D | 3.78
N6G | 0.0728
P1E | 4.99
D12H | 3.78
R5H | 0.0656
